Experimental data gathered from unrelated publications.
A part holds a random share of what one study measured. Substitutions count along the parent as printed.
Sequence of UniProt O15111 (whole entry, looked up): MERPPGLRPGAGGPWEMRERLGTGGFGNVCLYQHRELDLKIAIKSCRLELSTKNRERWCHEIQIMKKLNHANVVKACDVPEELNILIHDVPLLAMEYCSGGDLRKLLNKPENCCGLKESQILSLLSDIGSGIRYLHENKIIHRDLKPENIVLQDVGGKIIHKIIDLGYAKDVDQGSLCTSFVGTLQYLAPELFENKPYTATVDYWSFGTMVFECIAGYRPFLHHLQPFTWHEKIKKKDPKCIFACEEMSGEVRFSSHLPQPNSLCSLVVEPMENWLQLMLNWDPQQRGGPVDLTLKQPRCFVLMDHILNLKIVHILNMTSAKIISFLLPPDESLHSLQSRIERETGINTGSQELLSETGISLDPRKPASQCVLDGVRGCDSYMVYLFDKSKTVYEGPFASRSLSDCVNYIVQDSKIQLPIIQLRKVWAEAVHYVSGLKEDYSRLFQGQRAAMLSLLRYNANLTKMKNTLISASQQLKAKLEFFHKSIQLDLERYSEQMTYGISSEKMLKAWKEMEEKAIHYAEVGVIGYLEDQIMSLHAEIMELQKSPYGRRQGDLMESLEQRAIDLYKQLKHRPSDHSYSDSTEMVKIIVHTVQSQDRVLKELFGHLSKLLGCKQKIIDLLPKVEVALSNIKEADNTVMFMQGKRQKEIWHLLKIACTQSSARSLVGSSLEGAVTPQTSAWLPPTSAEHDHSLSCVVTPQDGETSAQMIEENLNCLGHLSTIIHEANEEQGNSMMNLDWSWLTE
Sequence of UniProt O94804 (whole entry, looked up): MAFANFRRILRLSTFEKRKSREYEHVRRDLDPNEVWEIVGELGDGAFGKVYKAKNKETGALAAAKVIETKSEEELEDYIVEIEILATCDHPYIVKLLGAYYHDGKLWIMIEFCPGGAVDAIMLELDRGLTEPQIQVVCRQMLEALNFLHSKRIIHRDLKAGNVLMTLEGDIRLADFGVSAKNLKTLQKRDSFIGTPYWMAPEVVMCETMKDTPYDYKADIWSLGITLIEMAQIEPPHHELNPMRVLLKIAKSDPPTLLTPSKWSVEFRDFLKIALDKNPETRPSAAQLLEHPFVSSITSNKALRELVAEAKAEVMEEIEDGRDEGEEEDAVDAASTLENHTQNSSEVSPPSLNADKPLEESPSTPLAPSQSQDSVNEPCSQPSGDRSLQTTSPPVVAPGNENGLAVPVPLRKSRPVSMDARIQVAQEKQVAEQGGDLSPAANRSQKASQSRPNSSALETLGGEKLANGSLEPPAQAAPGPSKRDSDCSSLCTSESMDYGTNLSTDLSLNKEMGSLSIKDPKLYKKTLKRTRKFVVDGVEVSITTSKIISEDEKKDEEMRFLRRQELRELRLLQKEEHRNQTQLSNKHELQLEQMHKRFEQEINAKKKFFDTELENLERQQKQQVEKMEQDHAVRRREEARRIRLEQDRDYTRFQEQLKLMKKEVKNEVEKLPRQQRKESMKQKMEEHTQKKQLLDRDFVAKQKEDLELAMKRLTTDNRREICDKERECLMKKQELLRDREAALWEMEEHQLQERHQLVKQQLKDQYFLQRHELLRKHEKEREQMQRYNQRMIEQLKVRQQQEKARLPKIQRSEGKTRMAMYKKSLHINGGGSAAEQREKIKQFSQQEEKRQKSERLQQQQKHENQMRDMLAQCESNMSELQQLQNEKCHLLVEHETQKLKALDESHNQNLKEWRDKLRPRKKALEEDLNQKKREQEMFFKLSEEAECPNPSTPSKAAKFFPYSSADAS
Sequence of UniProt Q13188 (whole entry, looked up): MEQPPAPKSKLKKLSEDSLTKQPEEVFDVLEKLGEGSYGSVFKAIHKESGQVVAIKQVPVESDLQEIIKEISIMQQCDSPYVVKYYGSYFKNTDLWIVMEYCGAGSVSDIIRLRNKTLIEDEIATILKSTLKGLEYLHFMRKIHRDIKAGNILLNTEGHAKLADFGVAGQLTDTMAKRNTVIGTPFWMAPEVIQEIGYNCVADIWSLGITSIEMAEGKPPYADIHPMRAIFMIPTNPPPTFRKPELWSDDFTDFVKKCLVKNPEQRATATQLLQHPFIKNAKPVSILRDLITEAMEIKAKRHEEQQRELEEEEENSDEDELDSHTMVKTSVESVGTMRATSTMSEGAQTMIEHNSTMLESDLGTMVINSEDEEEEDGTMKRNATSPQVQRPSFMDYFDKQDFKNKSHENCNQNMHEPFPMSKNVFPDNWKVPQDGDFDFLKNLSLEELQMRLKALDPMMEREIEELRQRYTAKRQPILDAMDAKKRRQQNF
Sequence of UniProt P11362 (whole entry, looked up): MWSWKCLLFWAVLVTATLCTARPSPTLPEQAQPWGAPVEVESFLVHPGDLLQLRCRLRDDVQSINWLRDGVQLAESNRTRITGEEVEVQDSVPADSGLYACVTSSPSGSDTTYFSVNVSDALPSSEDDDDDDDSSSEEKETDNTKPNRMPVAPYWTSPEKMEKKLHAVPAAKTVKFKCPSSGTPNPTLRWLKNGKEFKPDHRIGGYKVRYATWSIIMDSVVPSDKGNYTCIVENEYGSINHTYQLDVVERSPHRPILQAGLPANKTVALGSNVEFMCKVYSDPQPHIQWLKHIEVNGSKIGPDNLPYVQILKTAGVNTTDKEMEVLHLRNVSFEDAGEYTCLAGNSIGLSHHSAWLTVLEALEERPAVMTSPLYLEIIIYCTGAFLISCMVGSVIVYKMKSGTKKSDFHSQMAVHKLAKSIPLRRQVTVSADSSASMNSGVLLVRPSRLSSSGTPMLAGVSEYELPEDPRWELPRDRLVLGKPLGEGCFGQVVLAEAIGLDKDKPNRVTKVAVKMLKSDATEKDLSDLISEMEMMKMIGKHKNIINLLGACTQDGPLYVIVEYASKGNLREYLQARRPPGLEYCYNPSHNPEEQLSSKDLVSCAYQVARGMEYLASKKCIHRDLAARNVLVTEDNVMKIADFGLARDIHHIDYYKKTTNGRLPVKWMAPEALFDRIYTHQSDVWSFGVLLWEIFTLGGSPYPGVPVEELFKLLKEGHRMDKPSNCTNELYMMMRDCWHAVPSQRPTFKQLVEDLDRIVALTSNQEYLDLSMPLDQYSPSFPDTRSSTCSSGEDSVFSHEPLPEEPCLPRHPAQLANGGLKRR
Sequence of UniProt Q13163 (whole entry, looked up): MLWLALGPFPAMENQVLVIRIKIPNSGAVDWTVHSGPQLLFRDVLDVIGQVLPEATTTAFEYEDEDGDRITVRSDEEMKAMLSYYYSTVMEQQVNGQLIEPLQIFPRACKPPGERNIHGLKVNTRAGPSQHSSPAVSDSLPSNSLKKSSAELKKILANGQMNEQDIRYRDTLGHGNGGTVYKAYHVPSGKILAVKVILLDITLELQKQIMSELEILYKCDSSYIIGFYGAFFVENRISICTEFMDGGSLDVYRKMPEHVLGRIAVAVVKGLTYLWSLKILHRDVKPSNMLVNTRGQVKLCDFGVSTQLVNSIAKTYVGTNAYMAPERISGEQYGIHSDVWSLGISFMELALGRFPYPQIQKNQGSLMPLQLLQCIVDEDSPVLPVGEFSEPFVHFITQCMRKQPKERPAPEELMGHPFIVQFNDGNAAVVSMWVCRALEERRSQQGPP
Sequence of UniProt Q52WX2 (whole entry, looked up): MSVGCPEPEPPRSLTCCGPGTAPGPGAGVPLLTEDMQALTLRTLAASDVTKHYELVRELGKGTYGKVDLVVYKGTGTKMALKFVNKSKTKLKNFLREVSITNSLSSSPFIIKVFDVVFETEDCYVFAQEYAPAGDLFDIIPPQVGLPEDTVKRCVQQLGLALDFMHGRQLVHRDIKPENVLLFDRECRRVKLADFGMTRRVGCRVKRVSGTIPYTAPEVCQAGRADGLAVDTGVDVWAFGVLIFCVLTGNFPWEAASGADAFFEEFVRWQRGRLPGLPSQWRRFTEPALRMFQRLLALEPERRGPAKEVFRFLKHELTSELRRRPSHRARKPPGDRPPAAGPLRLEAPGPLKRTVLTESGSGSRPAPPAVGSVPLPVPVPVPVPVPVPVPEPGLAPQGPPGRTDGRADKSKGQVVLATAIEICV
Sequence of UniProt O94921 (whole entry, looked up): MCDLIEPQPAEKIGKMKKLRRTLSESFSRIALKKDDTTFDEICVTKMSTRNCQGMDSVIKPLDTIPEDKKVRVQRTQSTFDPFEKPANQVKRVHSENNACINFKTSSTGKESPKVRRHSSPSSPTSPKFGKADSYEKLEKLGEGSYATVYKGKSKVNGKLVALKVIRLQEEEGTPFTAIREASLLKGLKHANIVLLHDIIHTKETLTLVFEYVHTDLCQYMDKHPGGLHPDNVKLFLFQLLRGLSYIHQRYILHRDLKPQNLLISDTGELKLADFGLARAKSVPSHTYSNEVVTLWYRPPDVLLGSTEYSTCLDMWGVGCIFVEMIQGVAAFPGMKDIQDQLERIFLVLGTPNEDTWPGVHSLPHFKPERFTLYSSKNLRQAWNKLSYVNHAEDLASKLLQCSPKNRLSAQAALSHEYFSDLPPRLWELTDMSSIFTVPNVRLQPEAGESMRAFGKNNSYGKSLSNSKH

Series 1
Target: FOXO3, forkhead domain (mouse, UniProt Q9WVH4, residues 31-263)
Sequence of UniProt Q9WVH4 (31-263, looked up): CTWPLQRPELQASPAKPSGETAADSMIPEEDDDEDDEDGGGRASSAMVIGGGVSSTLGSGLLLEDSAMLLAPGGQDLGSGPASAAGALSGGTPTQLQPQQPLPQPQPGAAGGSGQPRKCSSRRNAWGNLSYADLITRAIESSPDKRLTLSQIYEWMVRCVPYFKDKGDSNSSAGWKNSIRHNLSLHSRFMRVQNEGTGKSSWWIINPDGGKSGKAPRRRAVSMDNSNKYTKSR
Method: protein-binding microarray
Form: hairpin DNA
Matrix: in vitro
Concentration: not given
Setting: whole hairpin DNA, median over replicate spots
Relative to: not given
Direction: higher = stronger binding
`GAGGCCCGGTAACCAACGCCTCCTGGCGTTGGTTACCGGGCCTCACACTC (5mC at 37)` gave a median fluorescence of 4540 a.u.
`GAGGCCATGTAAACAACGCCTCCTGGCGTTGTTTACATGGCCTCACACTC (5mC at 36)` has a median fluorescence of 5040 a.u.
The median fluorescence of `GAGGCCACGCAAACAACGCCTCCTGGCGTTGTTTGCGTGGCCTCACACTC (5mC at 36)` is reported as 5360 a.u.
With `GAGGCCATGGAACCAACGCCTCCTGGCGTTGGTTCCATGGCCTCACACTC` the median fluorescence was 4410 a.u.
For `GAGGCCATGCAACCAACGCCTCCTGGCGTTGGTTGCATGGCCTCACACTC`, the median fluorescence was 4580 a.u.
For `GAGGCCATGCAAACGACGCCTCCTGGCGTCGTTTGCATGGCCTCACACTC`, the median fluorescence was 4620 a.u.
For `GAGGCCATGCAACGAACGCCTCCTGGCGTTCGTTGCATGGCCTCACACTC (5mC at 13 31)`, the median fluorescence was 4540 a.u.
With `GAGGCCGTGTAACCAACGCCTCCTGGCGTTGGTTACACGGCCTCACACTC (5mC at 38)` the median fluorescence was 4200 a.u.

Series 2
Target: CCNE2, cyclin fold, Cln2 fusion (human)
Method: yeast growth competition, sequencing
Matrix: yeast
Setting: strong parent motif
Relative to: not given
Direction: higher = stronger binding
Starting sequence: BRCA2 docking peptide (human); CKKRRALDFLSRL; partner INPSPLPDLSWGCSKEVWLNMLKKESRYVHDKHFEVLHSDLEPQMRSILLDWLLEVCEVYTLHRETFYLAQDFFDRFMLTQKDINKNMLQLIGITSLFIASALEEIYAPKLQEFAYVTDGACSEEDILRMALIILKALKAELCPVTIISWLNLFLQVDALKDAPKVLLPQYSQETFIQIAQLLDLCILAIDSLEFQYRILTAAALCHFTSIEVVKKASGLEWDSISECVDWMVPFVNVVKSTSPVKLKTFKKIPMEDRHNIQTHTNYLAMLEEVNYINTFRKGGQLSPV
Under “normalised enrichment score”, `R5A L7A` is recorded as 1.2.
`R5K F9L` — result for “normalised enrichment score”: 1.39.
For `K3A`, “normalised enrichment score” read 1.9.
`R5K`: “normalised enrichment score” 0.871.
For `R12A`, “normalised enrichment score” read 1.53.
For `R4A`, “normalised enrichment score” read 0.608.
Under “normalised enrichment score”, `D8A` is recorded as 1.5.
`F9A`: “normalised enrichment score” 1.29.

Series 3
Structure (SMILES): O=c1nc(-c2ccccn2)sc2ccccc12
Method: competition with immobilised ligand
Concentration: 1 µM
The remaining binding was 100% (Serine/threonine-protein kinase SBK1 (SBK1, Homo sapiens, UniProt Q52WX2); binding).
Dual specificity mitogen-activated protein kinase kinase 5 (MAP2K5, Homo sapiens, UniProt Q13163); binding — remaining binding: 79%.
For Activin receptor type-1B (ACVR1B, Homo sapiens, UniProt P36896); cell-free assay: remaining binding read 100%.
It gave 100% for remaining binding (Hepatocyte growth factor receptor (MET, Homo sapiens, UniProt P08581, Y1235D); cell-free assay).
It gave 94% for remaining binding (Serine/threonine-protein kinase 3 (STK3, Homo sapiens, UniProt Q13188); binding).
Hepatocyte growth factor receptor (MET, Homo sapiens, UniProt P08581, M1250T); cell-free assay — remaining binding: 98%.
It gave 100% for remaining binding (NUAK family SNF1-like kinase 1 (NUAK1, Homo sapiens, UniProt O60285); binding).
For Cyclin-dependent kinase 14 (CDK14, Homo sapiens, UniProt O94921); binding: remaining binding read 100%.
The remaining binding was 100% (3-phosphoinositide-dependent protein kinase 1 (PDPK1, Homo sapiens, UniProt O15530); binding).
Inhibitor of nuclear factor kappa-B kinase subunit alpha (CHUK, Homo sapiens, UniProt O15111); cell-free assay — remaining binding: 100%.
Ephrin type-A receptor 7 (EPHA7, Homo sapiens, UniProt Q15375); cell-free assay — remaining binding: 80%.
The remaining binding was 99% (Serine/threonine-protein kinase 10 (STK10, Homo sapiens, UniProt O94804); binding).
Phosphatidylinositol 4,5-bisphosphate 3-kinase catalytic subunit alpha isoform (PIK3CA, Homo sapiens, UniProt P42336, Q546K); cell-free assay — remaining binding: 100%.
Serine/threonine-protein kinase/endoribonuclease IRE1 (ERN1, Homo sapiens, UniProt O75460); cell-free assay — remaining binding: 100%.
It gave 100% for remaining binding (Fibroblast growth factor receptor 1 (FGFR1, Homo sapiens, UniProt P11362); cell-free assay).

Mixed results
`CC(=O)N(Cc1ccc(F)cc1)c1ccsc1C(=O)O` gave a remaining compound of 92.2% (mouse, microsomes or S9; 2 µM, 0.5 h).

Some of these lines once more (series 1):
The median fluorescence of `GAGGCCACGCAAACAACGCCTCCTGGCGTTGTTTGCGTGGCCTCACACTC (5mC at 36)` is reported as 5360 a.u.
With `GAGGCCATGGAACCAACGCCTCCTGGCGTTGGTTCCATGGCCTCACACTC` the median fluorescence was 4410 a.u.
For `GAGGCCATGCAACCAACGCCTCCTGGCGTTGGTTGCATGGCCTCACACTC`, the median fluorescence was 4580 a.u.
